Measured values gathered from unrelated publications.
Each line is one published result; not all experiments were run side by side. “And” joins repeats or separate records; there may be more than shown. ± marks the error that the study gave.
B1: ALAS2 54-587 (Homo sapiens, UniProt P22557); chain KATKAGGDSPSWAKGHCPFMLSELQDGKSKIVQKAAPEVQEDVKAFKTDLPSSLVSVSLRKPFSGPQEQEQISGKVTHLIQNNMPGNYVFSYDQFFRDKIMEKKQDHTYRVFKTVNRWADAYPFAQHFSEASVASKDVSVWCSNDYLGMSRHPQVLQATQETLQRHGAGAGGTRNISGTSKFHVELEQELAELHQKDSALLFSSCFVANDSTLFTLAKILPGCEIYSDAGNHASMIQGIRNSGAAKFVFRHNDPDHLKKLLEKSNPKIPKIVAFETVHSMDGAICPLEELCDVSHQYGALTFVDEVHAVGLYGSRGAGIGERDGIMHKIDIISGTLGKAFGCVGGYIASTRDLVDMVRSYAAGFIFTTSLPPMVLSGALESVRLLKGEEGQALRRAHQRNVKHMRQLLMDRGLPVIPCPSHIIPIRVGNAALNSKLCDLLLSKHGIYVQAINYPTVPRGEELLRLAPSPHHSPQMMEDFVEKLLLAWTAVGLPLQDVSVAACNFCRRPVHFELMSEWERSYFGNMGPQYVTTYA
B2: TIMP1 (Homo sapiens, UniProt P01033); chain CTCVPPHPQTAFCNSDLVIRAKFVGTPEVNQTTLYQRYEIKMTKMYKGFQALGDAADIRFVYTPAMESVCGYFHRSHNRSEEFLIAGKLQDGLLHITTCSFVAPWNSLSLAQRRGFTKTYTVGCEECTVFPCLSIPCKLQSGTHCLWTDQLLQGSEKGFQSRHLACLPREPGLCTWQSLRSQIA
Chain of UniProt Q64663 (whole entry, unmodified, looked up): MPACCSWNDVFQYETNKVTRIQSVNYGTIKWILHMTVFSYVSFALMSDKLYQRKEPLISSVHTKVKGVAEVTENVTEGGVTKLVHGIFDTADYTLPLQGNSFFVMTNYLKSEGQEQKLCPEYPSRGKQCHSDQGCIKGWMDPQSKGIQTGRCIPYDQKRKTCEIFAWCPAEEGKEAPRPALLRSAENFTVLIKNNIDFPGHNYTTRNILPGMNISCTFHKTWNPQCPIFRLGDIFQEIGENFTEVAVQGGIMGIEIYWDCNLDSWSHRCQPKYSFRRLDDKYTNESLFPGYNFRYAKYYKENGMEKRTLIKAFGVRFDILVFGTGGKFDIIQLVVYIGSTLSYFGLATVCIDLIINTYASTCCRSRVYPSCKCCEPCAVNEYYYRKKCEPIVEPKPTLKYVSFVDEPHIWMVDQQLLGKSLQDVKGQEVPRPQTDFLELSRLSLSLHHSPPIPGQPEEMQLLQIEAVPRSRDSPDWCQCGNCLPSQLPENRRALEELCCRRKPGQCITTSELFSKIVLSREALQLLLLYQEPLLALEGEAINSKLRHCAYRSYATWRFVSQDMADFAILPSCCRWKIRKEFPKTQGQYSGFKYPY
Chain of UniProt Q08204 (whole entry, looked up): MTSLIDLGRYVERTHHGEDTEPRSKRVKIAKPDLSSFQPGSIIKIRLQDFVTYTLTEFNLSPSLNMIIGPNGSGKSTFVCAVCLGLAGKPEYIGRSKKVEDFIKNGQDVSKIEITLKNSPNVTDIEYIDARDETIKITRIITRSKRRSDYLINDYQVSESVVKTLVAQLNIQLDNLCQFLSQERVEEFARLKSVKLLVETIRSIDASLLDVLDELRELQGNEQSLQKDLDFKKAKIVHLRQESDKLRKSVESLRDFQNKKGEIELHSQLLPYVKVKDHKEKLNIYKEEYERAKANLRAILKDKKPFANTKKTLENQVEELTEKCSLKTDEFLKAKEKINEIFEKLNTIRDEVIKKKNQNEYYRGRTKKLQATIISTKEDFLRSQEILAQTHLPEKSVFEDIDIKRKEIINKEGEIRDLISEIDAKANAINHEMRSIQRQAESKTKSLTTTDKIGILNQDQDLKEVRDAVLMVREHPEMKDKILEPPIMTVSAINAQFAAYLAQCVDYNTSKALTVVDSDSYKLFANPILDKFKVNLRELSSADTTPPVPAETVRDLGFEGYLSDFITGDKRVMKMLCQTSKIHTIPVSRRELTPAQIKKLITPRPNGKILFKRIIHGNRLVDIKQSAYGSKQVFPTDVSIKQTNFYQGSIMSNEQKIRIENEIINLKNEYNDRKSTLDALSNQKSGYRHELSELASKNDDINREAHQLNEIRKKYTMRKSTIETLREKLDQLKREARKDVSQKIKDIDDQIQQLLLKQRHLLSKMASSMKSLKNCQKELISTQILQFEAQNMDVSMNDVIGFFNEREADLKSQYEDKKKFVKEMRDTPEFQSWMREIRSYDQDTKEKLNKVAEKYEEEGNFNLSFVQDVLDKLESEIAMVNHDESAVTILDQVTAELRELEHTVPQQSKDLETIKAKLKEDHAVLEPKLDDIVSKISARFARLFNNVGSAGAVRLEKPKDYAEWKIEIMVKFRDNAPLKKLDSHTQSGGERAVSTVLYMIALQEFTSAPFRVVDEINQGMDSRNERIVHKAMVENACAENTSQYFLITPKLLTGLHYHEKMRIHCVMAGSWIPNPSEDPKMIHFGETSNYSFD
Chain of UniProt P84090 (whole entry, unmodified, looked up): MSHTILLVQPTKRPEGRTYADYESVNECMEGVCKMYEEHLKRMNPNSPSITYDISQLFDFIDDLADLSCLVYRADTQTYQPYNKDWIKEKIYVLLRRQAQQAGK
Chain of UniProt P40235 (whole entry, unmodified, looked up): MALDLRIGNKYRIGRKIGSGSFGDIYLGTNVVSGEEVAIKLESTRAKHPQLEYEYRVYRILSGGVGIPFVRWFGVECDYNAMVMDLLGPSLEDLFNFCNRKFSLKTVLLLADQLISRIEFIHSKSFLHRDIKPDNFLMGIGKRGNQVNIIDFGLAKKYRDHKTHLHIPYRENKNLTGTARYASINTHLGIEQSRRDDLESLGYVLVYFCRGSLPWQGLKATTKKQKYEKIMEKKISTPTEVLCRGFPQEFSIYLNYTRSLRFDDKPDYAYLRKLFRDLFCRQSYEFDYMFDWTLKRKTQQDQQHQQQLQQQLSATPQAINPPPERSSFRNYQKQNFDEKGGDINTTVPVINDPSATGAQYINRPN
Chain of UniProt Q12749 (whole entry, looked up): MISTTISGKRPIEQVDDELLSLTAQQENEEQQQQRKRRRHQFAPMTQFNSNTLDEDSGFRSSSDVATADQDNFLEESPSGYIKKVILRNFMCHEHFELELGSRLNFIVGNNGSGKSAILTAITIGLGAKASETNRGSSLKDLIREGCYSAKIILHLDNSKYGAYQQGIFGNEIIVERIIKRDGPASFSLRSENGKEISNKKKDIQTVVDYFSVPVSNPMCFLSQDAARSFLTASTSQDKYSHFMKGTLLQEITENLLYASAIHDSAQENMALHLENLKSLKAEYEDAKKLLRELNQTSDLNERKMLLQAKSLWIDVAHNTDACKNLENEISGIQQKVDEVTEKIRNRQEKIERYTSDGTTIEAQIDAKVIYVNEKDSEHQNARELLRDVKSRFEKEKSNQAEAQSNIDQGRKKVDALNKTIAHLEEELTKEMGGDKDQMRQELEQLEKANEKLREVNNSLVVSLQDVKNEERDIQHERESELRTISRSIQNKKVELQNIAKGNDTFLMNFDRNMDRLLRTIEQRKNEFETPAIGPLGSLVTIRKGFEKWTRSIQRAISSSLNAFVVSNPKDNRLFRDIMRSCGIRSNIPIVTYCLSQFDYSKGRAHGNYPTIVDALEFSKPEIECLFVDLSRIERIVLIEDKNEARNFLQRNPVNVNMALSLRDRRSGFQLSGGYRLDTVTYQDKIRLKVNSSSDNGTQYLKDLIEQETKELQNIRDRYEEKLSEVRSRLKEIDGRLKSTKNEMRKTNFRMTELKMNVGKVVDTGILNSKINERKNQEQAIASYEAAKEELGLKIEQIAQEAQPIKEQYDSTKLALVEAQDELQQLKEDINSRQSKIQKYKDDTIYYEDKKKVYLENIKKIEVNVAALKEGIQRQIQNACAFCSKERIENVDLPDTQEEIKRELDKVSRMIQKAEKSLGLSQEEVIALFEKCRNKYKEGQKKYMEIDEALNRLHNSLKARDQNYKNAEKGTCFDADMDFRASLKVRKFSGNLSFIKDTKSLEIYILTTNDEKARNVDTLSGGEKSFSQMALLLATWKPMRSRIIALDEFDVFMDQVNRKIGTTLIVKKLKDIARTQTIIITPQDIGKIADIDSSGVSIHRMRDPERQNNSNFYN
Chain of UniProt P03956 (whole entry, looked up): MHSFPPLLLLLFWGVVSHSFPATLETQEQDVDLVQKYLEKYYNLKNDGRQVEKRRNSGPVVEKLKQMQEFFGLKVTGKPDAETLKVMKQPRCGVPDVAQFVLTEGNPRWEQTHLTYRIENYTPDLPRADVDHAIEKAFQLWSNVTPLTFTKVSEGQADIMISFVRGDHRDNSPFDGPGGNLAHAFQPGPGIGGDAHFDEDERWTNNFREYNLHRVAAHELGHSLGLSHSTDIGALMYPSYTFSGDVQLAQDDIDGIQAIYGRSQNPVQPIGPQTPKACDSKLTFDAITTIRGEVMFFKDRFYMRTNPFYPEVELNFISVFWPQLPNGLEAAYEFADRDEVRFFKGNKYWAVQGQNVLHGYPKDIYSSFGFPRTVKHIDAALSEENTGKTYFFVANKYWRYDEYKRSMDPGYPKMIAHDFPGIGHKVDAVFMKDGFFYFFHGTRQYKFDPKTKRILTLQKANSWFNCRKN
Chain of UniProt Q9SV55 (whole entry, looked up): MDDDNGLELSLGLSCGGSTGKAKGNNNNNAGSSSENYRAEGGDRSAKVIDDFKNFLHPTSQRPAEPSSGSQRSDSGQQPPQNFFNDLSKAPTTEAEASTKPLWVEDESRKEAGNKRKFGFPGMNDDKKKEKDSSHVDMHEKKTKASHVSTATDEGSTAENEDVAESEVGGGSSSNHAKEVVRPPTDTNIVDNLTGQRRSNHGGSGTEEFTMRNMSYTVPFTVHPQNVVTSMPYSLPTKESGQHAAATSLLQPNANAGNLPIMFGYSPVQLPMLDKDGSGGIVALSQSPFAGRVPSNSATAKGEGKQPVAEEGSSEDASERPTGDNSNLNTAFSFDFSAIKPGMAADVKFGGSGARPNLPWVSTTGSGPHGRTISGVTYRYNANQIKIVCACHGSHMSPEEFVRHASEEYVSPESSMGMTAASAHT
Chain of UniProt Q9ZU93 (whole entry, unmodified, looked up): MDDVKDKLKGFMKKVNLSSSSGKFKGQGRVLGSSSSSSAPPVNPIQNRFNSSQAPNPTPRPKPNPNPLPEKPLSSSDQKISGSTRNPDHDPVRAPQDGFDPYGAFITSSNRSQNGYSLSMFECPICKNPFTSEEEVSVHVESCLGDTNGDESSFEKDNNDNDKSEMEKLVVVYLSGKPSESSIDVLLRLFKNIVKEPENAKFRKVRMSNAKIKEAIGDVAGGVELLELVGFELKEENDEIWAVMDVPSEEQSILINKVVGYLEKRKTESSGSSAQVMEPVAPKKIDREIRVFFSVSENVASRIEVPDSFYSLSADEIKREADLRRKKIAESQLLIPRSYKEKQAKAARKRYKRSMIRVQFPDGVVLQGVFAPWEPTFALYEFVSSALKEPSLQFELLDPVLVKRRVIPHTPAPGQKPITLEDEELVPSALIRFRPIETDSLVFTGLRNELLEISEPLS

Molecule	target or system	test	test system	setting	how to read	quantity	result
FNA / CGLSGLGVA-NH2 ([18F]FNA-labelled, C-amide)	–	ex vivo gamma counting	peptide, glioblastoma mouse model, spleen	60 min post injection, with: 500-fold excess CooP blocking	–	tissue uptake	0.37 %ID/g
11-deoxycorticosterone	CYP11B2 (human)	substrate binding, stopped-flow global kinetic fitting	purified enzyme	3-state conformational selection model, with: no adrenodoxin	–	rate constant k1	0.58 ± 0.0846 s⁻¹
ACTA1 (Gallus gallus, UniProt P68139)	MYH1 (Oryctolagus cuniculus, UniProt A0A5F9CQ93)	laser three-bead trap	–	Bell-bond fit, added Pi 0 mM, with: ATP 100 µM	–	detachment rate without load	124 s⁻¹
FGB (Homo sapiens, UniProt P02675)	TWNK (Homo sapiens, UniProt Q96RR1)	cross-linking MS	–	with: DSSO	–	cross-linked residues	K374 to K607
colistin	Salmonella enterica serovar Typhimurium	broth microdilution	clinical isolate RKI-No 437/14	–	–	MIC	≤ 0.5 mg/L
SMC5 (Saccharomyces cerevisiae, UniProt Q08204)	SMC6 (Saccharomyces cerevisiae, UniProt Q12749)	cross-linking MS	–	hits only	–	interaction screen	cross-linked
PRTARHAPAVRKFSPDLKLLKDVKISVSFTE (DGCR8(96-126), SUMO-tagged)	Enhancer of rudimentary homolog (Homo sapiens, UniProt P84090, F60A)	DGCR8 peptide binding, ITC	peptide	293 K	–	ΔH	-12.6 ± 1.87 kJ/mol
FGA (Homo sapiens, UniProt P02671)	TRIM45 (Homo sapiens, UniProt Q9H8W5)	cross-linking MS	–	with: DSSO	–	cross-linked residues	K463 to K446
Mcm2-7, DyLight 650 on Mcm6 N-terminus (Saccharomyces cerevisiae)	ORC unphosphorylated, DyLight 550 on Orc6 (Saccharomyces cerevisiae)	smFRET	–	–	–	median interaction duration	26.4 s
LPPGAVPPGARFDPFGPIGT (PSMF1 232-251 (Homo sapiens, UniProt Q92530))	20S proteasome core particle (Homo sapiens, UniProt P28072)	β2 activity inhibition, inhibitor	peptide	10 nM, with: Boc-LRR-AMC	–	IC50	< 10 µM
caspofungin	–	–	adult ICU patients, mITT, serum	dose not given, day 14	–	bilirubin	17.9 µmol/L
SAAAAGDDDDLYN (CDC48A 797-809 (Arabidopsis thaliana))	PUX2 157-273 (Arabidopsis thaliana, UniProt Q9ZU93)	ITC	peptide	–	–	ΔH	-31 ± 0.8 kJ/mol
Teicoplanin	–	–	–	2-6 °C	–	stock solution stability time	≤ 24 months
GLP-1/MC4 receptor agonist chimeric peptide, D-Ser position 2	GLP1R (Homo sapiens, UniProt P43220)	cAMP, agonist	HEK293	FRET biosensor, stably transfected	–	EC50	275 pM
ACAFGCMKNWSWPIWCTNK (Bicycle 60 bicyclic peptide; C-terminal amide/TATA scaffold, three cysteines cyclised)	NECTIN4 32-349 (Homo sapiens, UniProt Q96NY8)	fluorescence polarisation	peptide	–	–	Ki	132 nM
ALB (Homo sapiens, UniProt P02768)	SLC27A1 (Homo sapiens, UniProt Q6PCB7)	cross-linking MS	–	with: DSSO	–	cross-linked residues	K161 to K49
BzATP	P2X purinoceptor 7 (P2rx7, Rattus norvegicus, UniProt Q64663, I214A/Q143A)	ion current, agonist, two-electrode voltage clamp	Xenopus oocytes	300 µM	–	normalized current	0.93 and 0.96 and 0.99
B1 (ALAS2 54-587)	POLDIP2 52-368 H225A (Homo sapiens, UniProt Q9Y2S7)	ALAS2 degradation by CLPXP	–	–	baseline: wild-type POLDIP2, higher = faster degradation	relative degradation rate	< 50%
CSN1S1 alpha-S1-casein, dephosphorylated	hhp1 1-296 (Schizosaccharomyces pombe, UniProt P40235)	pull-down	–	–	–	Ki	14000 nM
JAZ2 fragment (Arabidopsis thaliana)	NINJA (Arabidopsis thaliana, UniProt Q9SV55)	competitor, AlphaScreen or HTRF	–	–	–	IC50	0.19 µM
B2 (TIMP1)	MMP1 100-269 (Homo sapiens, UniProt P03956)	MMP-1 inhibition, inhibitor, Morrison tight-binding equation	–	–	–	Ki	2.5 nM

Some of these lines once more:
Molecule	target or system	test	test system	setting	how to read	quantity	result
GLP-1/MC4 receptor agonist chimeric peptide, D-Ser position 2	GLP1R (Homo sapiens, UniProt P43220)	cAMP, agonist	HEK293	FRET biosensor, stably transfected	–	EC50	275 pM
ACAFGCMKNWSWPIWCTNK (Bicycle 60 bicyclic peptide; C-terminal amide/TATA scaffold, three cysteines cyclised)	NECTIN4 32-349 (Homo sapiens, UniProt Q96NY8)	fluorescence polarisation	peptide	–	–	Ki	132 nM
ALB (Homo sapiens, UniProt P02768)	SLC27A1 (Homo sapiens, UniProt Q6PCB7)	cross-linking MS	–	with: DSSO	–	cross-linked residues	K161 to K49
